Published values pooled from the literature.
Every numbered part comes from another study and shows a few of its results, in no order. Substitutions count along the parent as printed.

Sample 1 — method: DHFR PCA, deep sequencing; medium: yeast; with: (+)-ABA 2500 µM; reference: wild-type fitted maximum; direction: higher = stronger binding
Target: ABI1, truncated, D143A, DHFR fusion (Arabidopsis thaliana)
Setting: methotrexate growth selection, single substitutions
Parent: PYL1, truncated, DHFR fusion (Arabidopsis thaliana); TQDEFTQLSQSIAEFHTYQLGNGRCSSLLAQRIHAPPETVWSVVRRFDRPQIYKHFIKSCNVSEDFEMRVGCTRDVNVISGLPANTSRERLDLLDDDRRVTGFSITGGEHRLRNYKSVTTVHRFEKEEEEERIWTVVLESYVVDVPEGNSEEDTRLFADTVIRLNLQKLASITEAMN
`T160A` — result for “relative binding score”: 87.9%.
`V145S` — result for “relative binding score”: 82.8%.
Under “relative binding score”, `F103D` is recorded as 0.398%.
Under “relative binding score”, `F124Y` is recorded as 104%.
`F15R`: “relative binding score” 89.2%.
Under “relative binding score”, `H110C` is recorded as 81.8%.
`T135C`: “relative binding score” 101%.
For `S59E`, “relative binding score” read 101%.
Under “relative binding score”, `L156A` is recorded as 98.5%.
Under “relative binding score”, `D3T` is recorded as 91.4%.
Under “relative binding score”, `G21M` is recorded as 97%.
`S150N` — result for “relative binding score”: 95.4%.
For `S27F`, “relative binding score” read 71.2%.
`T154W` — result for “relative binding score”: 7.9%.
Under “relative binding score”, `R123A` is recorded as 107%.
`T73D` — result for “relative binding score”: 92.8%.
Under “relative binding score”, `L156R` is recorded as 90.4%.
For `S11W`, “relative binding score” read 102%.
Under “relative binding score”, `S140G` is recorded as 69.5%.
Under “relative binding score”, `V100Q` is recorded as 94.5%.
Under “relative binding score”, `I162T` is recorded as 70.9%.
`S104P`: “relative binding score” 2.4%.

Sample 2 — method: protein binding microarray; molecule type: double-stranded DNA, one strand shown; medium: in vitro; tested at: not given; reference: not given; direction: higher = stronger binding
Target: Histone acetyltransferase KAT6A, both winged helices, GST fusion (KAT6A, Homo sapiens, UniProt Q92794, residues 1-181)
Setting: 8-mer, flanks averaged, mean of 2 arrays, mostly near background
Residues (chain): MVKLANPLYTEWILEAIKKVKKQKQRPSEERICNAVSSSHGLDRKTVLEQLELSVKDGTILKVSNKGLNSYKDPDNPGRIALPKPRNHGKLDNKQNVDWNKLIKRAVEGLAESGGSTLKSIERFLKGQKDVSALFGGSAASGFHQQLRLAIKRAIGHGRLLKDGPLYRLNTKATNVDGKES
`TGGGCAAA` gave an E-score of -0.231.
For `CACCGTTC`, the E-score was 0.0369.
`GTATTGCA` gave an E-score of -0.0586.
`AATACAAG` gave an E-score of -0.0673.
For `CTGTGGAC`, the E-score was -0.194.
`AACCCACC` has an E-score of -0.0337.
For `AAGTCTCT`, the E-score was -0.277.
`CCTAGGCA` has an E-score of -0.132.
`ATCTTACG` has an E-score of 0.0838.
With `AACCTTCT` the E-score was -0.154.
With `TCAAATAA` the E-score was 0.0503.
`ACACGAGA` has an E-score of -0.0501.
`ACAGTTCA` gave an E-score of -0.14.
For `AGTCTACC`, the E-score was 0.0877.
`TTCGGAAA` has an E-score of 0.104.
With `ATCTGGAG` the E-score was -0.133.
The E-score of `CTTTGCTA` is reported as -0.166.
With `AACAGGCT` the E-score was -0.0965.
`CAGCCATG` gave an E-score of -0.155.
The E-score of `CAGGTGAG` is reported as -0.26.
With `GATCCCGA` the E-score was 0.111.
`GTTCCAAA` has an E-score of -0.195.
`TCGATCCA` has an E-score of -0.0184.
With `ACGGCGCC` the E-score was 0.325.
For `ACATTACA`, the E-score was -0.0457.

Sample 3 — target: UBE2V2 UBC core domain (UniProt Q15819); method: yeast two-hybrid; medium: yeast; setting: mostly zero background; reference: not given; direction: higher = stronger interaction
B1: TRIM22 RING domain (UniProt Q8IYM9); chain VKVDIEKEVTCPICLELLTEPLSLDCGHSFCQACITAKIKESVIISRGESSCPVCQTRFQPGNLRP
B2: RLIM RING domain (UniProt Q9NVW2); chain SFGENDALKTCSVCITEYTEGNKLRKLPCSHEYHVHCIDRWLSENSTCPICRRAVLASGNRE
B3: ANAPC11 RING domain (UniProt Q9NYG5); chain GICRMAFNGCCPDCKVPGDDCPLVWGQCSHCFHMHCILKWLHAQQVQQHCPMCRQEWKFKE
B4: TRIM31 RING domain (UniProt Q9BZY9); chain FVNKLQEEVICPICLDILQKPVTIDCGHNFCLKCITQIGETSCGFFKCPLCKTSVRKNAIRF
Residues (chain): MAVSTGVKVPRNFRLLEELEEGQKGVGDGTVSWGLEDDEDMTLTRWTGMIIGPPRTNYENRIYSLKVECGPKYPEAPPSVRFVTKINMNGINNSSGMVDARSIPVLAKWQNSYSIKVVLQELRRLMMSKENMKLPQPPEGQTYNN
For `B1 (TRIM22 RING domain)`, “lacZ reporter activity” read 0.
`PEELAVNNDDCAICWDSMQAARKLPCGHLFHNSCLRSWLEQDTSCPTCRMSLNIADNNR (AMFR RING domain (UniProt Q9UKV5))`: “lacZ reporter activity” 0.
`B2 (RLIM RING domain)`: “lacZ reporter activity” 0.
Under “lacZ reporter activity”, `LGTKLEAKYLCSACRNVLRRPFQAQCGHRYCSFCLASILSSGPQNCAACVHEGIYEEGIS (TRAF2 RING domain (UniProt Q12933))` is recorded as 0.
Under “lacZ reporter activity”, `FVKTVEDKYKCEKCHLVLCSPKQTECGHRFCESCMAALLSSSSPKCTACQESIVKDKVF (TRAF3 RING domain (UniProt Q13114))` is recorded as 0.
`B3 (ANAPC11 RING domain)`: “lacZ reporter activity” 0.
Under “lacZ reporter activity”, `B4 (TRIM31 RING domain)` is recorded as 0.

Sample 4 — target: CCND1, cyclin fold, Cln2 fusion (human); method: yeast growth competition, sequencing; medium: yeast; setting: weak parent motif; reference: not given; direction: higher = stronger binding
Parent: CDKN1B docking peptide (human); PSACRNLFGPVDH
For `PSACRNLFGFVDH [P10F]`, “normalised enrichment score” read 0.52.
`PSPCRNLFGPVDH [A3P]` — result for “normalised enrichment score”: 0.554.
For `PSACRNLFGRVDH [P10R]`, “normalised enrichment score” read 0.833.
Under “normalised enrichment score”, `PSACANAFGPVDH [R5A L7A]` is recorded as -0.228.
For `ASACRNLFGPVDH [P1A]`, “normalised enrichment score” read 1.13.
Under “normalised enrichment score”, `PSACRNLFGPVDT [H13T]` is recorded as 1.37.
`PSACRNLFGPVQH [D12Q]`: “normalised enrichment score” 0.824.
`PSACRMLFGPVDH [N6M]` — result for “normalised enrichment score”: 1.63.
Under “normalised enrichment score”, `PSACRNLFGDVDH [P10D]` is recorded as 1.06.
`PSICRNLFGPVDH [A3I]` — result for “normalised enrichment score”: 0.755.
`PSACRNLFGPVNH [D12N]` — result for “normalised enrichment score”: 0.637.
`PSACTNLFGPVDH [R5T]`: “normalised enrichment score” 0.166.
For `PSACRNLFGPDDH [V11D]`, “normalised enrichment score” read 0.666.
Under “normalised enrichment score”, `ISACRNLFGPVDH [P1I]` is recorded as -0.0318.
For `PSACINLFGPVDH [R5I]`, “normalised enrichment score” read 0.344.
For `PSACRNTFGPVDH [L7T]`, “normalised enrichment score” read -0.0536.

Sample 5 — method: universal PBM; molecule type: double-stranded DNA, one strand shown; medium: in vitro; tested at: 600 nM; direction: higher = stronger binding
Target: Sal-like protein 4, full length isoform A (SALL4, Homo sapiens, UniProt Q9UJQ4, residues 1-1053)
Sequence of UniProt Q9UJQ4 (whole entry, looked up): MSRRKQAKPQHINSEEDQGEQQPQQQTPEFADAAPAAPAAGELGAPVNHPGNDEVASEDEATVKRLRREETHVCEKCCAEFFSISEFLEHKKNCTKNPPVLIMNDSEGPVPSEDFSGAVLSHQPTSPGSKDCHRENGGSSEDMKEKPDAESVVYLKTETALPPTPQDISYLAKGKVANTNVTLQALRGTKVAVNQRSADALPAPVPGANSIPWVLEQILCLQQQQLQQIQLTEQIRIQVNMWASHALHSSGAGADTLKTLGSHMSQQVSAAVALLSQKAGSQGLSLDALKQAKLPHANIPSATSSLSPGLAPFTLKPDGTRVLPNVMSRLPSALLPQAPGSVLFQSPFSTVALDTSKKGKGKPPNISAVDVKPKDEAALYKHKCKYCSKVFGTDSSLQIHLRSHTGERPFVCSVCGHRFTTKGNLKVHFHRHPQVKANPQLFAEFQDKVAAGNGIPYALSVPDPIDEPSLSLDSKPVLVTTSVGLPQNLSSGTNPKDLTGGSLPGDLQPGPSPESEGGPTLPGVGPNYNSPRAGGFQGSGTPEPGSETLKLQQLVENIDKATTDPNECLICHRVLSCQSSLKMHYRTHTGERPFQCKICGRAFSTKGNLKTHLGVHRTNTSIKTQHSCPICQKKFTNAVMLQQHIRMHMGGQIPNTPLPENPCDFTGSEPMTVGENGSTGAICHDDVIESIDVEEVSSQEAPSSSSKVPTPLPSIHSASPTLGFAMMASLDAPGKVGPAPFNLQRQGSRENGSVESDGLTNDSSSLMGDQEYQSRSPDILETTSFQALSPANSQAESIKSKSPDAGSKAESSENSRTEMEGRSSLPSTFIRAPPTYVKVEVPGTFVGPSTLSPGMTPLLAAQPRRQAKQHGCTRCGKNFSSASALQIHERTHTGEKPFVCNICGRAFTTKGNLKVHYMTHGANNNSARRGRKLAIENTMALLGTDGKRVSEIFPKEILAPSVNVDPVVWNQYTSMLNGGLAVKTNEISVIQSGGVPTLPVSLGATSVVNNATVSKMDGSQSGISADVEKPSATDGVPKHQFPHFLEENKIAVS
Setting: 8-mer, flanks averaged, mean of replicates
`AGTACTAC` has an E-score of 0.164.
`AGGTTCTC` has an E-score of -0.161.
`CACATTGG` gave an E-score of -0.00994.
`CACGATAA` gave an E-score of 0.234.
The E-score of `TGAAGTAA` is reported as 0.127.
For `AAGCACTT`, the E-score was 0.0911.
With `GATGTAAA` the E-score was 0.2.
For `AATTGTCA`, the E-score was 0.257.
`CTAGAATC` gave an E-score of -0.0128.
With `CTCAGCTA` the E-score was -0.0581.
The E-score of `GGACAGCC` is reported as -0.327.
`AGAGAACC` has an E-score of -0.256.
For `TATAGTGA`, the E-score was 0.322.
`AACATAGT` has an E-score of 0.185.
With `GTTATCTA` the E-score was 0.24.
With `GCCAAGTA` the E-score was -0.174.
`GATACTTA` gave an E-score of 0.0935.
With `AGCTAGGA` the E-score was -0.106.
`CTCTGCAG` has an E-score of -0.173.
With `ATGGATTC` the E-score was 0.0539.
`GAGAATGA` has an E-score of 0.174.
With `CTTTATCC` the E-score was -0.00344.
With `ACACTTTA` the E-score was 0.203.
`GAACAGGA` gave an E-score of -0.19.
`AACTGAGT` has an E-score of 0.0791.

Repeated from above (sample 1):
`T160A` — result for “relative binding score”: 87.9%.
`V145S` — result for “relative binding score”: 82.8%.
Under “relative binding score”, `F103D` is recorded as 0.398%.
Under “relative binding score”, `F124Y` is recorded as 104%.
`F15R`: “relative binding score” 89.2%.
Under “relative binding score”, `H110C` is recorded as 81.8%.
`T135C`: “relative binding score” 101%.
